Measured values pooled from the literature.
A part holds a random share of what one study measured.

Set 1 — technique: RNA Bind-n-Seq; molecule type: RNA; matrix: in vitro; concentration: 200 nM; setting: whole 134-nt RNA, ends assumed; added: 150 mM KCl; relative to: input library; direction: higher = stronger binding
Target: Fragile X messenger ribonucleoprotein 1, C-terminal low-complexity region (Fmr1, Mus musculus, UniProt P35922)
Constant ends, left off below: GGGAGUUCUACAGUCCGACGAUC … UGGAAUUCUCGGGUGUCAAGG
Strand	log2 enrichment
UGGCCCUGGUGGCAUGCGGGGAGGACGAGGUGGCCUCAUGGAUCGUGGUGGUCCCGGUGGAAUGUUCAGAGGUGGCCGUGGUGGAGACAG	-0.0611
AAGUCCUGUGCUACACAUCGUAUGUACCGAAUCGGGUUUUGGUUUUGGGUUUUGGGAAAGUAUUAUGUUACGCCGUUCGGAUCUGCACUU	-0.453
AAGUCCUGUGCUACACAUCGUAUGUACCGAAUCGGAAAAAAAGGAAAGGAAAAAGGAAAGUAUUAUGUUACGCCGUUCGGAUCUGCACUU	-0.909
AGUCCUGUGCUACACAUCGUAUGUACCGAAUCGGGGAAAAAGGGGAGGGGUUUGGGGAAAGUAUUAUGUUACGCCGUUCGGAUCUGCACU	0.385
UGGCCCUGGUGGCAUGCGGGGAGGAAGAGGUGGCCUCAUGGAUCGUGGUGGUCCCGGUGGAAUGUUCAGAGGUGGCCGUGGGGGAGACAG	0.2
UCAAGUCCUGUGCUACACAUCGUAUGUACCGAAUCGGGGAGGGGAGGGGUGGGGAAAGUAUUAUGUUACGCCGUUCGGAUCUGCACUUCC	1.22
UUAGAAGAACCCGAAGAACCUAAAGUGCUAACACCAGAAGAACAAUUAGCAGAUAAACUGCGGCUAAAGAAAUUACAGGAAGAGUCAGAC	0.176
UGGCCCUGGUGGCAUGCGGGGAGGAAGAGGUGGCCUCAUGGAUCGUGGUGGUCCCGGUGGAAUGUUCAGAGGUGGCCGUGGUGGAGACAA	0.0348
CAAGUCCUGUGCUACACAUCGUAUGUACCGAAUCGGAAAGGUUUUUUUGGAAAGGAAAGUAUUAUGUUACGCCGUUCGGAUCUGCACUUC	-1.1
CACAGACAACACGCACCCACACAGACACAGAGGGAAGGGGUUGGGAUGGGGACAGGGUGCACAGAAAGGCGGGGUAGGACCCCAGCCCCU	1.15
UGGCCCUGGUGGCAUGCGGGGAGGAAGAGGUGGCCUCAUGGAUCGUGGUGGUCCCGGUGGAAUCUUCAGAGGUGGCCGUGGUGGAGACAG	-0.1
CAAGUCCUGUGCUACACAUCGUAUGUACCGAAUCGGGAAGGGGAAGGGGAAGGGGAAAGUAUUAUGUUACGCCGUUCGGAUCUGCACUUC	0.713
UUCCUCAAGUCCUGUGCUACACAUCGUAUGUACCGAAUCGGGUGGUGGUGGAAAGUAUUAUGUUACGCCGUUCGGAUCUGCACUUCCAGC	-0.11
UGUGAACUUGUAUGUGAAGAAUCUGGACGACUCCAUUGAUGACGACAAACUGAGGAAAGAGUUCUCUCCCUAUGGAGUAAUUACCAGUGC	-0.00519

Set 2 — technique: protein-binding microarray; molecule type: double-stranded DNA, one strand shown; matrix: in vitro; concentration: 940 nM top; setting: 60-bp whole probe; added: salmon DNA 0.4 mg/ml; relative to: random background probes; direction: higher = stronger binding; constant ends, left off below: GCCTAGCAC … GTCTTGATTCGCTTGACGCTGCTG
Target: Interferon regulatory factor 5, full length, phosphomimetic (IRF5, Homo sapiens, UniProt Q13568-2, residues 1-514, S451D/S453D/S456D/S462D)
Strand	fitted relative affinity [z-score]
TTAGAACTGTGTATCGATTAGTGCTAG	1.29
GACGGTTTCCTAGTGCTGACGTGCTAG	-0.293
GACTGTATCGACTATCGGGACGTGCTA	1.51
TCAAATTTTCATTTTCCACTGTGCTAG	1.05
CTCCCTCTGTAAGTCAGCACGTGCTAG	-0.147
GATGAACTGGGGTTTCGAGACGTGCTA	1.65
GTTTTTTAAAGTTTCAGTGAGTGCTAG	1.44
TTAGTTATCGGGACTGGATTAGTGCTA	0.353
ACTAGCTTCCATTTTCTGAAGTGCTAG	0.903
TTAGAACTGAGTAGCGATTAGTGCTAG	-0.405
TCATATATAATATATATTACTGTGCTA	0.445
TCACATCTGCAACATCTAACTGTGCTA	0.565
TCATGCCTATTTTTCCCACTGTGCTAG	0.853
TTAGGTATCCTTCTCCCTTAGTGCTAG	0.903
GACGGAGTGCTTCTCCTGACGTGCTAG	-0.577
GTCGGACTGGACTATCGGGACGTGCTA	-0.793
TTAGGTTTTGGACTGGGTTAGTGCTAG	0.841
GACGGATTCGGGTTTCGGGACGTGCTA	2.65
GACGATCTCAGTTTTGAGACGTGCTAG	0.426

Set 3 — technique: RNA Bind-n-Seq; molecule type: RNA; matrix: in vitro; concentration: not given; setting: RNA with constant flanks, ends assumed; relative to: input RNA pool; direction: higher = stronger binding
Target: RING finger protein unkempt homolog, zinc fingers 1-6, GST-SBP tag (UNK, Homo sapiens, UniProt Q9C0B0, residues 30-357)
Constant ends, left off below: GGGAGUUCUACAGUCCGACGAUC … CAACAGAGGAUUGAGCAUCA
Target sequence (chain): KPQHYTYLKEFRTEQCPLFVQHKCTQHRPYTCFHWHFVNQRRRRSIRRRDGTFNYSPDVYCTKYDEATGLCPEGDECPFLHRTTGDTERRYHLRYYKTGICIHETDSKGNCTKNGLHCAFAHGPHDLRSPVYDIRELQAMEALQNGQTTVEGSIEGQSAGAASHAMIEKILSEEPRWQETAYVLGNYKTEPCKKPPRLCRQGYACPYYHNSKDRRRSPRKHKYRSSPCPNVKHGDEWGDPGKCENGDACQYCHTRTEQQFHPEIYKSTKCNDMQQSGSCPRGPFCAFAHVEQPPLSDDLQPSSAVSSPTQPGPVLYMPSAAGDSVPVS
Strand	bound/input enrichment
AUACAUUCUAAGGGAGCACAUGGUGAAGGUAAUUCAGUGUCAUUGGAUUUUCAGAAUUCCUCCGUGUCCAAACCAGACCCACCUCCAUCUCAGAAUAAGCCAGCAACUUUCAGACCACCA	0.27 ratio
UUUCAUCUUUUGGAGUUAGAAAAGGUCCACGAACUGUGCGAUAACUUCUGCCACCGAUACAUCCGCUGUUUGAAGGGGAAAAUGCCCAUCGACCUCGUCAUUGAUGAAAGAGACGGCAGC	0.0718 ratio
AUGGAGUAGAUUGUACAUUAAAUGUUUUGUUUCUUUACAUUUUUAUGUUCUGAGUUUUGAAACCGUUUUAUGAAAUUUCUUUAUUUUUCAUUGCAUAGACUGUUAAUAUGUAUAUAAUAC	0.86 ratio
CUGGACGAGUUUCUAGUGAAAAAUGACCCCUGCCGAGCACGAGGCAGAACUAACACCGAACUCCGAGAGAAAUUCAUCCUGCCAGAAGGGGCAUCUCAGGGGAUGACUCCAUUCCGGUCA	0.114 ratio
GAAGACACAGAAGCAAAGAACCCAUUUUCUACUCAGGACACAGAUUUAGACUUGGAGAUGUCCGCUCCCUAUAUCCCAAUGGAUGAUGACUUCCAGUUACGUUCCUUCGAUCAGUUGUCA	0.353 ratio
CUGAUUGUGGACAACAGCAUGGCUCCAGCCUCCGAUCUUGCACUGCCCUUGGAAACAAAAGCCGCAACAGUUCCAAUUAAAGACAAAGGAACUGUACAGACUGAAGAAAAACCACGUGAA	0.0972 ratio
GAAUGGAAGAAUAUGGGUUAAGGCAAAAACCAUCCAGCAGACUUUAAUUUUGGCAAACAUUUCCGAAGCUUGUGAACACAUGACGUCAGAUCAAAGAAAACAGAUCUUCUCCAGAUUGGC	0.252 ratio
GUGACCUGUGAGGACAUAAUGCCUUGGUUUUUUCUAAUGUAGAUGAUAUGGCUGUGAUACAUCCGGGCCAGCGUUAACCUCUGCUCCUCCUCCCUCUGUAGUUUUUACCUACAAUCAAUU	0.278 ratio

Set 4 — technique: RNA Bind-n-Seq; molecule type: RNA; matrix: in vitro; concentration: 365 nM; relative to: no-protein control; direction: higher = stronger binding
Target: RNA binding protein fox-1 homolog 2, RRM domain, GST-SBP tag (RBFOX2, Homo sapiens, UniProt O43251-10, residues 100-194)
Setting: natural RNA segment, single round, ends assumed
Constant ends, left off below: GGGAGUUCUACAGUCCGACGAUC … UGGAAUUCUCGGGUGCCAA
Residues (chain): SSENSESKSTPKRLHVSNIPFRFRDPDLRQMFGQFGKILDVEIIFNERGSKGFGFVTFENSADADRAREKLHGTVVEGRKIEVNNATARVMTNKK
Strand	RBNS enrichment (R)
AGGCCUAAUUGUUCAUCAUCAAGCCGGCGACUCAUGUGGUGCCUGCCCUAGGCGUGGCCUGCGGUCUGGCAGAUCCGUGCUACAGAAUUCGCCUGGUUCCUCUCUAUUUU	0.688
CGUACUUUAAAUUUUUGUUAUGAAAUAAAAAAAAGAUGGGUUUUGUAAAAAUAAAAAAAAAAUAUUUUUAGCAGAACAGGACUUACAGGGUCAUUGUCCCCACAAUGUGC	0.548
GUCAACUGUUUACACACAAACUGCCAUGUCCCACGCCCCUUCCCUCUCCUUGUUUGCUAUGGGGGAGAUUGCUUCCCUCCCCAGAUCUUUGCUAUGUAGCUUAGAGUGAC	1.7
UUCCUACUGGCUGGGGUUUCUCCCUCACUCUGCCUCCCAAACACAAUAAAUACAUAGUUGCCCACCAGCCCAUGUCUUUAUUGUAUGUGGACCCUUCUGACUUAGGCAUU	0.358
CAGUAUUUCACAGUGGACAUUUCACAGUAUUUCACAGUCUUGCCUGUGGCCUGCUGGCUGCAUGCUGUAUCAGCCACAACCUGGCAAGUGGCCUUCUGACAGGUUUCUUU	2.03
CCGGAACCAGAAGUGACGCGACCCCCCUCCCUCUCACUCCUCUUGCCCUCUGCUUUACUCUCAUGUGGCAAACGUGCGGCUCGUGGUGUGAGUGCCAGAAGCUGCCUCCG	0.398
CCCAUCUCUGUGGCCCUCUGAAGCCCCAGCCCCCAUGCAUCAGCCUCUGGCACAUUUCCUCUCCUGCCUCUGCUUGAAAAGGAAACCAGAAGCCGAACAAGUGAGAGUAA	0.745
GCAGGAUAAAGAGGAUAACUCCUUCCAUUAGCAAAUUUUACAGUUGUUAACAGUACUCUGCCAUAUUUGAAAAAUAAUGCCAGAGUCAGUCCUUGAAAACAAGGUAGCUC	0.726
AAAAUAUAAAAAUUAGCCGGGCUUUGUGGCAUGUGCCUGUAAUCCCAGCUAUUUGGCAGGCUGAGGCAUGAGAAUCGCUUGAACCCAGGAGGUGGAGGUUACAGUGAGCU	4.19
CUCAGGGUCCAGCCAUGCCCCACCCUGGACUGAAGUUCUGCAAAGUCCUCCGAGGACCGGAACACGUUUCUGCGACCCGGGGCUCUGGCCAGCACUGUGUUCUGCGUUUG	0.221
GGGUGCUCUCCAGACCCGUGCAGGGGCCGCCUGGGGUACACGGAAGGAAGUUGAGUCCUAGUGCAAAAUGCAGGCGGACGUUGCCAGAGAGUGCGCAGCAAAUGACCUUC	0.786
AGUUGGUACCUGCUUUAAGAAACUGUUACAGGGCUUGUUGGUAAUGUUUUGAAUCUUUGUAAAAAUUGAUAUUCUGUAUAACAGAGUGCCUCUCUGUUACUUUUGGCCUA	2.8

Set 5 — technique: protein binding microarray; molecule type: double-stranded DNA, one strand shown; matrix: in vitro; concentration: not given; relative to: not given; direction: higher = stronger binding
Target: Histone acetyltransferase KAT6A, both winged helices, GST fusion (KAT6A, Homo sapiens, UniProt Q92794, residues 1-181)
Setting: 8-mer, flanks averaged, mean of 2 arrays, mostly near background
Target sequence (chain): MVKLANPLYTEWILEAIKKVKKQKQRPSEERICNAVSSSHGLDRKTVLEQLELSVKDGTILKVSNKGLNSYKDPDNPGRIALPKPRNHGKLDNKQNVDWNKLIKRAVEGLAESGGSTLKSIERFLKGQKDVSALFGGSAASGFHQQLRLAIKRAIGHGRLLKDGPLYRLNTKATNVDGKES
Strand	E-score
CACGGCGA	0.336
CGAAAGCA	-0.0852
GGGTGCCA	-0.0433
CGACTATC	-0.0433
ACTGCATG	-0.0779
ACGTGTGG	-0.123
CCACTCAA	-0.201
ACGGCAGG	0.188
AATCAGCA	-0.11
TAACCTCA	-0.188
AGTCCTAC	0.102
AGTCCCAT	-0.193
GTAGGTAA	-0.123
ATGAGTCA	-0.141
GAGTGGCC	0.00092
TCTACGAA	-0.0329
GCGAGCTA	0.0315
AGAGAAGA	-0.127
CGCCTTTA	0.133
ATCCTGAA	-0.134
GAAAGTGC	-0.0199
GCAGGCCC	-0.0198
AGGTGCGA	-0.0126
GGGACCTA	-0.0423
AAGACGGA	0.0474

Repeated from above (set 2):
Strand	fitted relative affinity [z-score]
GACTGTATCGACTATCGGGACGTGCTA	1.51
TCAAATTTTCATTTTCCACTGTGCTAG	1.05
CTCCCTCTGTAAGTCAGCACGTGCTAG	-0.147
GATGAACTGGGGTTTCGAGACGTGCTA	1.65
GTTTTTTAAAGTTTCAGTGAGTGCTAG	1.44
TTAGTTATCGGGACTGGATTAGTGCTA	0.353
ACTAGCTTCCATTTTCTGAAGTGCTAG	0.903
TTAGAACTGAGTAGCGATTAGTGCTAG	-0.405
TCATATATAATATATATTACTGTGCTA	0.445
TCACATCTGCAACATCTAACTGTGCTA	0.565
TCATGCCTATTTTTCCCACTGTGCTAG	0.853
